Results of several laboratories.
Parts stem from different laboratories: compare values within a part only.

Set 1
Target: RNA binding protein fox-1 homolog 2, RRM domain, GST-SBP tag (RBFOX2, Homo sapiens, UniProt O43251-10, residues 100-194)
Method: RNA Bind-n-Seq
Molecule type: RNA
Sample: in vitro
Concentration: 365 nM
Setting: natural RNA segment, single round, ends assumed
Relative to: no-protein control
Reading: higher = stronger binding
Shared flanks, not repeated: GGGAGUUCUACAGUCCGACGAUC … UGGAAUUCUCGGGUGCCAA
Residues (chain): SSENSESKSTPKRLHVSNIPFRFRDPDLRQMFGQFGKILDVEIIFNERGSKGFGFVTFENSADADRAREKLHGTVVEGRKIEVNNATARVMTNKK
For `GUCCCAAUGUUACCUCAACACCACGAAGCUUAUUUCUAUACUGGAGUUCUUCAGUAUAGAAAGUGGAAGUGGUUUAAAUGGCAUAGUACAUAUACAUAUAUAUAUGGCCU`, “RBNS enrichment (R)” read 0.288.
`CGGUCCACAGGAAGGGCUAGGAGCUGAAUUAAAGAUGAGAGCAUCCCUCCUGCACACUGGGGCUUCCCUUCACCAGGAGCAAAUCACUUCAACCUCCCGUGCCUCGUUUC` — result for “RBNS enrichment (R)”: 0.778.
`CCGCCUCUGGAGGAAGAUGAAGAGGAAGAGUGACAGCAGAGGGGGCGGGGUUCCUGGUGGGAAAGCUGGGUACCUGCUUCCUGUUUCCAGCCAGUUGCCUUUGCUCAGAA`: “RBNS enrichment (R)” 0.639.
For `UGCAGUACGAAUUUAAUACUUAUAAAGGUUUGCAUUAAUGAGGAUUACACAGAAAACCUUUGUUAAGGACUUGUGUAGAUCUGAUAAUUGGCAAAUUUUUAUUUUAAAAG`, “RBNS enrichment (R)” read 0.529.
`UGGUUUUUAACCCUUUUAGACUAAGCCUCAAAAAUAUUAUCAUACCUGUGUACUUGUACAUUAAAAACAAAAUUAUUGCUGAGUAAGAAGAUAUUUAAUAUAUGAAACUC` — result for “RBNS enrichment (R)”: 0.403.
`CUGCCUUCAGAUUCCUGCCGCCAUCUUCUGCCUGCAGGAUUGGGACUCCCACCCUGGCAUCAGACACCAGGCUUUGUCUUCUGGAGUUGCAGCCAGCGCUGCCCCAUGCC`: “RBNS enrichment (R)” 0.754.
`CACAGCAUACUAAAUCCUCUGGAGAGAUGGAAGUGGACUAGUCUUAAUUUUACCUUCACAUUAAUUCAAACCGUGCAAGUAACCACGGGGUCCAUCUUUUACAUCUGGUA`: “RBNS enrichment (R)” 0.527.
`ACACAGGCAGCUCCUUUCCCUUCACGUGGUCUGCAGAGAGCAGGGUGAGCUGCCAGCUGCCCCUCUCCACCAGGGUACCCUGUCUUGGUGGUUAGGGGCCACUUUUCCUU`: “RBNS enrichment (R)” 0.279.

Set 2
Target: RING finger protein unkempt homolog, zinc fingers 1-6, SBP tag (UNK, Homo sapiens, UniProt Q9C0B0, residues 30-357)
UniProt Q9C0B0, sequence (30-357, looked up): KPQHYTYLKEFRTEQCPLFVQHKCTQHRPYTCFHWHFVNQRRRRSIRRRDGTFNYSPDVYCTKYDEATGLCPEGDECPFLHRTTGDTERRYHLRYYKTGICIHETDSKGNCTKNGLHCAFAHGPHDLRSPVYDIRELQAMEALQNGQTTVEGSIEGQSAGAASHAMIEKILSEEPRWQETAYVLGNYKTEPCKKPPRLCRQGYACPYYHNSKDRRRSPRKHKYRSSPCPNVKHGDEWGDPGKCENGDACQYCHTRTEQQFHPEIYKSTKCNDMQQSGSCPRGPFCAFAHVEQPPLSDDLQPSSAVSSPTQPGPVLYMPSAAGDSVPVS
Method: RNA Bind-n-Seq
Molecule type: RNA
Sample: in vitro
Concentration: 100 nM
Setting: RNA with constant flanks, vertebrate orthologous sites, ends assumed
Relative to: input RNA pool
Reading: higher = stronger binding
Shared flanks, not repeated: GGGAGUUCUACAGUCCGACGAUC … CAACAGAGGAUUGAGCAUCA
With `AUAAUCACUAAUUGUAAUCGGAAUAAAGUGUAACAUUGUGUAGCUUUUUUUUGUAUAAAAUAGACAAAUAGAAAUGGUCCAAUUAGUUUCCUUUUUAAUAUGCUUAAAAUAAGCAGGUGG` the bound/input enrichment was 1.32 ratio.
`GGUUGAUGUUUUAAAGAAUCACUUGGUAAAAGAAGGUCGGGUUGAUGAAGAAAUUGCACUUAGAAUUAUUAAUGAGGGCGCUGCCAUCCUUCGGAGAGAGAAAACUAUGAUAGAAGUAGA` gave a bound/input enrichment of 1.16 ratio.
`CAUUAACACACAAAAUGUCUCCAGGGGGGUAUUAGAUUUGAUUUCUUACAUAUAAAACAAAUCAACCAACCAUUUUUAAAGUAGAAGAGGUUUUUAGAUAGUAAAUGAAAUAUUCUUUUU` gave a bound/input enrichment of 1.44 ratio.
`UAUAAUUAUGAAAAUCUAAAGGAUUUUUAAUGUUUAAUUUCCCCUGGCAUAUUAAGACAUCUUUUUUCCAGGCAAAUCACUCAGCGUGUGAGUGUGCGUGCACAUGUUACAAAGACAACU` has a bound/input enrichment of 0.185 ratio.
`AGGGAGAAGAGCUCACAAAAUGAAAGGAAAACUAGUAAAGAGUUUCUAACAGUUAAAAGCUAAGAAAGAUUAGGACAAUUUUACAAAUGAGAAAAUAAAAAUCAAAUAAACAAAAAAGGA` gave a bound/input enrichment of 1.15 ratio.
`UCAGUCCCCUGGGCUGGGACAGAUUUUUUUUAACGUCUUGAAACUUAAAUUCUGUGCUUGCAGGAGACUGUAACGUUUUUGUCUUUUUUUUUUUAAACAAACAACCUCCACCUCCAGUAG` gave a bound/input enrichment of 0.456 ratio.
With `UGUGUUGGUGCAGAGUGCUCUGUACCAGUGCUCAUCAUCCCUUCUUCAUACCAACAGCCCUAGUUACAGGAAUUAAUAUUUUUUAAAAUUUACAUUGCUGUAUAUUCAAAGAUUUGUUUU` the bound/input enrichment was 0.312 ratio.
The bound/input enrichment of `GUGACUUUGGACGUCCGCUCCCCCUCACUGUGGAGGCUGUUUAGUCUCGGGCCUUGCAGGUUUAUUUUCCUCUCCUGGACUCGAGGCUUCUGUUUCACCAUGUUCCGCCAGAUCGUUGGU` is reported as 0.28 ratio.

Set 3
Target: Prothrombin, mature alpha-thrombin (F2, Homo sapiens, UniProt P00734)
Method: aptamer microarray, sandwich
Molecule type: DNA with 2'F-ANA
Sample: in vitro
Concentration: 200 nM
Setting: whole 15-mer aptamer, many near background
With: Cy3 exosite-II aptamer, 400 nM
Reading: higher = stronger binding
Sequence: GGTTGGTGTGGTTGG
`2'F-ANA at 1 3 5 8 9 10 11 12 15`: “mean fluorescence intensity” 52.9 a.u.
`2'F-ANA at 3 4 5 7 10 12 14`: “mean fluorescence intensity” 77.1 a.u.
For `2'F-ANA at 1 2 3 4 5 7 8 9 10 12 13 14`, “mean fluorescence intensity” read 76.4 a.u.
For `2'F-ANA at 1 3 4 8 14 15`, “mean fluorescence intensity” read 80.2 a.u.
`2'F-ANA at 1 4 10 11` — result for “mean fluorescence intensity”: 46 a.u.
For `2'F-ANA at 3 5 6 8 11 12 14 15`, “mean fluorescence intensity” read 75.2 a.u.
`2'F-ANA at 6 9 11 12 14` — result for “mean fluorescence intensity”: 257 a.u.
`2'F-ANA at 4 5 7 11 12 14 15` — result for “mean fluorescence intensity”: 203 a.u.
For `2'F-ANA at 4 7 9 10 12 13 14`, “mean fluorescence intensity” read 58.6 a.u.
`2'F-ANA at 2 5 6 7 10 12`: “mean fluorescence intensity” 49.8 a.u.
For `2'F-ANA at 2 4 6 12 13 14`, “mean fluorescence intensity” read 108 a.u.
Under “mean fluorescence intensity”, `2'F-ANA at 3 5 7 8 9 12 14` is recorded as 64.6 a.u.
Under “mean fluorescence intensity”, `2'F-ANA at 1 2 3 5 8 9 10 13` is recorded as 114 a.u.
For `2'F-ANA at 1 3 4 7 9 11 13 14`, “mean fluorescence intensity” read 64.6 a.u.
Under “mean fluorescence intensity”, `2'F-ANA at 2 6 8 10 15` is recorded as 131 a.u.
For `2'F-ANA at 1 3 4 7 8 9 10 11 13 15`, “mean fluorescence intensity” read 61 a.u.
Under “mean fluorescence intensity”, `2'F-ANA at 3 4 6 7 8 9 10 11` is recorded as 215 a.u.
Under “mean fluorescence intensity”, `2'F-ANA at 1 2 3 5 6 7 8 10 11 13 14 15` is recorded as 58.5 a.u.
`2'F-ANA at 1 2 4 8 9 10 12 15`: “mean fluorescence intensity” 57.9 a.u.
Under “mean fluorescence intensity”, `2'F-ANA at 4 5 6 7 10 11 13 14` is recorded as 51.8 a.u.

Set 4
Target: Sal-like protein 4, full length isoform B (SALL4, Homo sapiens, UniProt Q9UJQ4-2, residues 1-616)
Method: universal PBM
Molecule type: double-stranded DNA, one strand shown
Sample: in vitro
Concentration: not given
Setting: 8-mer, flanks averaged, mean of replicates
Reading: higher = stronger binding
Residues (chain): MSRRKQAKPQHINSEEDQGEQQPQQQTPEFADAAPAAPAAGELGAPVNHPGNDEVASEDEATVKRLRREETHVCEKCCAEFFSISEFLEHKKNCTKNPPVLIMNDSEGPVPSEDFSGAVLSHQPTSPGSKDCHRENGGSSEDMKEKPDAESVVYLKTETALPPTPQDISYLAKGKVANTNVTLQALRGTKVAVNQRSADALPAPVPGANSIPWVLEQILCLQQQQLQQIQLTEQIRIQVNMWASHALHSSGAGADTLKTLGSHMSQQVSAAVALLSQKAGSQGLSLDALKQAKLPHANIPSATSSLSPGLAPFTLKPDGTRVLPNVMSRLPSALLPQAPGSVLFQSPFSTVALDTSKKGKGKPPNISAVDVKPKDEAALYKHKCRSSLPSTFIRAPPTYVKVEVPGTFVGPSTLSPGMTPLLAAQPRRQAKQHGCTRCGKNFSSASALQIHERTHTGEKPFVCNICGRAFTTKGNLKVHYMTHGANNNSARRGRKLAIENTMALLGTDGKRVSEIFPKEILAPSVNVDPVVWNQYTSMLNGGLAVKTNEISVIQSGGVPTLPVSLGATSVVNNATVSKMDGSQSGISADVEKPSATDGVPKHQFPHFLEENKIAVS
With `TCCCCTAA` the E-score was 0.0303.
For `CCTGCGGA`, the E-score was -0.259.
With `CACTAGTA` the E-score was 0.102.
With `CCCTCAAA` the E-score was -0.093.
`AGCAAGCG` has an E-score of -0.161.
With `CGCAATAG` the E-score was -0.0272.
For `CCCGCGGC`, the E-score was -0.305.
The E-score of `CGAGCTTC` is reported as -0.0961.
With `AACGCTGC` the E-score was -0.068.
The E-score of `AAAATCTT` is reported as 0.284.
For `ACCAGGGT`, the E-score was -0.268.
`GAGGGGCC` has an E-score of -0.39.
`CCTTCAGA` gave an E-score of -0.0885.
For `CGCCGCTA`, the E-score was -0.3.
With `ACAGCTGC` the E-score was -0.0506.
The E-score of `ACTTGATG` is reported as 0.1.
`AACTTCCT` gave an E-score of 0.0149.
`AGCTCCGC` has an E-score of -0.319.
For `ATAACGCA`, the E-score was 0.251.
`CCCTGCCA` gave an E-score of -0.165.
The E-score of `TCGACTCA` is reported as 0.0348.

A few entries again (set 2):
With `AUAAUCACUAAUUGUAAUCGGAAUAAAGUGUAACAUUGUGUAGCUUUUUUUUGUAUAAAAUAGACAAAUAGAAAUGGUCCAAUUAGUUUCCUUUUUAAUAUGCUUAAAAUAAGCAGGUGG` the bound/input enrichment was 1.32 ratio.
`GGUUGAUGUUUUAAAGAAUCACUUGGUAAAAGAAGGUCGGGUUGAUGAAGAAAUUGCACUUAGAAUUAUUAAUGAGGGCGCUGCCAUCCUUCGGAGAGAGAAAACUAUGAUAGAAGUAGA` gave a bound/input enrichment of 1.16 ratio.
`CAUUAACACACAAAAUGUCUCCAGGGGGGUAUUAGAUUUGAUUUCUUACAUAUAAAACAAAUCAACCAACCAUUUUUAAAGUAGAAGAGGUUUUUAGAUAGUAAAUGAAAUAUUCUUUUU` gave a bound/input enrichment of 1.44 ratio.
`UAUAAUUAUGAAAAUCUAAAGGAUUUUUAAUGUUUAAUUUCCCCUGGCAUAUUAAGACAUCUUUUUUCCAGGCAAAUCACUCAGCGUGUGAGUGUGCGUGCACAUGUUACAAAGACAACU` has a bound/input enrichment of 0.185 ratio.
`AGGGAGAAGAGCUCACAAAAUGAAAGGAAAACUAGUAAAGAGUUUCUAACAGUUAAAAGCUAAGAAAGAUUAGGACAAUUUUACAAAUGAGAAAAUAAAAAUCAAAUAAACAAAAAAGGA` gave a bound/input enrichment of 1.15 ratio.
`UCAGUCCCCUGGGCUGGGACAGAUUUUUUUUAACGUCUUGAAACUUAAAUUCUGUGCUUGCAGGAGACUGUAACGUUUUUGUCUUUUUUUUUUUAAACAAACAACCUCCACCUCCAGUAG` gave a bound/input enrichment of 0.456 ratio.
With `UGUGUUGGUGCAGAGUGCUCUGUACCAGUGCUCAUCAUCCCUUCUUCAUACCAACAGCCCUAGUUACAGGAAUUAAUAUUUUUUAAAAUUUACAUUGCUGUAUAUUCAAAGAUUUGUUUU` the bound/input enrichment was 0.312 ratio.
The bound/input enrichment of `GUGACUUUGGACGUCCGCUCCCCCUCACUGUGGAGGCUGUUUAGUCUCGGGCCUUGCAGGUUUAUUUUCCUCUCCUGGACUCGAGGCUUCUGUUUCACCAUGUUCCGCCAGAUCGUUGGU` is reported as 0.28 ratio.
